# Assay results from different studies.
# “And” joins repeats or separate records; there may be more than shown.
# Target: Histamine H2 receptor (HRH2, Homo sapiens, UniProt P25021)
SMILES,test,system,setting,how to read,measurement,result
N[C@H](C(=O)N1CCCC1)C1CCN(c2nccc3c(-c4ncc(Cl)cc4Cl)cccc23)CC1,"functional response, agonist",,10 µM,,response,2%
O=C(O)c1ccc(-c2nc(-c3ccccc3Cl)c3sccn23)cc1,"radioligand binding, safety screen panel",,10 µM,relative to: control,specific binding,115% and 111%
COc1ccc(F)cc1S(=O)(=O)Nc1cnc2c(c1)C(=O)NCCO2,"ligand displacement, radioligand",,10 µM,,inhibition,10%
CCN(CC)CCOc1ccc(-c2nnn(Cc3ccc(OC)cc3)c2N)cc1,radioligand binding,HEK293,"10 µM, safety profiling",,inhibition,-2.74%
Cc1cc(Nc2nc(C[C@@]3(C(=O)O)CCN(Cc4cccc(Cl)c4F)[C@H](C)C3)cc(C)c2F)[nH]n1,agonist,,10 µM,,activation,-0.05%
CCOC(=O)[C@](CC)(CCCSCCOCCOCCNC(=O)c1ccc(-c2c3ccc(=N)c(S(=O)(=O)O)c-3oc3c(S(=O)(=O)O)c(N)ccc23)c(C(=O)O)c1)NC(=O)c1ccc(C2CC2)c(Cc2ccc(F)cc2)n1,"ligand displacement, radioligand",,10 µM,,inhibition,15%
CCCO[C@H]1[C@H](O)[C@@H](N)[C@@H](O[C@H]2[C@H](O[C@@H]3O[C@H](CO)[C@@H](O[C@H]4O[C@@H](CN)[C@@H](O)[C@H](O)[C@H]4N)[C@H]3O)[C@@H](O)[C@H](N)C[C@@H]2N)O[C@@H]1CO,radioligand binding,,"10 µM, 1% DMSO",,specific binding,-7%
C/C(=N\OCCCN1CCCCC1)c1ccc(C(F)(F)F)cc1,"antagonist, cAMP",,10 µM,,inhibition,27.5%
CN[C@@H]1[C@H](O)[C@H](NC)[C@H]2O[C@]3(O)[C@H](O[C@@H]2[C@H]1O)O[C@H](C)C[C@H]3NC(=O)Cc1cc(Cl)ccn1,"ligand displacement, radioligand",,10 µM,,inhibition,-7%
Cc1cc(-c2ccc3ccccc3c2)nnc1NCCN1CCN(C)CC1,antagonist,,concentration not given,,antagonist activity,negative
CCc1nnc(-c2c(OC)cc(-c3cnc4cc(-c5cnn(C)c5)ccn34)cc2OC)o1,"antagonist radioligand, radioligand binding",,"10 µM, SafetyScreen44 H2 replicate 2",lower = stronger displacement,remaining binding,99.4%
Cc1ccc2c(n1)c(-c1cccc(S(C)(=O)=O)c1)c(C)n2C/C(F)=C/CN,"ligand displacement, radioligand",,10 µM,,inhibition,3%
Cc1sc2c(c1C)C(c1ccc(Cl)cc1)=NC(CC(=O)OC(C)(C)C)c1nnc(C)n1-2 (centres unmarked),"ligand displacement, radioligand",,1 µM,,inhibition,-27%
CS(C)(=O)=Nc1ccc(-c2ccc(-c3nc4cc(O[C@@H]5CO[C@H]6[C@@H]5OC[C@H]6O)[nH]c4cc3F)cc2)cc1,"calcium signal, antagonist",,10 µM,,inhibition,13%

# Repeated from above:
SMILES,test,system,setting,how to read,measurement,result
COc1ccc(F)cc1S(=O)(=O)Nc1cnc2c(c1)C(=O)NCCO2,"ligand displacement, radioligand",,10 µM,,inhibition,10%
